Published values gathered from unrelated publications.
Lines come from different studies, so protocols differ. “And” joins repeats or separate records; there may be more than shown. Numbers after ± are the reported error.
4'-phosphopantetheinyl transferase PptT: 4'-phosphopantetheinyl transferase PptT (Mycobacterium tuberculosis, UniProt O33336)
UniProt O33336, sequence (whole entry, looked up): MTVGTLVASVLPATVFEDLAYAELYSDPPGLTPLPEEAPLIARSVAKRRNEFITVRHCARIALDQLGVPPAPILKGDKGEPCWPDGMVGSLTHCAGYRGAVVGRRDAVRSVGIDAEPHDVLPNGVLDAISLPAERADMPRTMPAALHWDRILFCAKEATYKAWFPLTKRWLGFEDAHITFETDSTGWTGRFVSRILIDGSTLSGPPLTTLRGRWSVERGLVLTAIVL
eis: N-acetyltransferase Eis (eis, Mycobacterium tuberculosis, UniProt P9WFK7)
UniProt P9WFK7, sequence (whole entry, looked up): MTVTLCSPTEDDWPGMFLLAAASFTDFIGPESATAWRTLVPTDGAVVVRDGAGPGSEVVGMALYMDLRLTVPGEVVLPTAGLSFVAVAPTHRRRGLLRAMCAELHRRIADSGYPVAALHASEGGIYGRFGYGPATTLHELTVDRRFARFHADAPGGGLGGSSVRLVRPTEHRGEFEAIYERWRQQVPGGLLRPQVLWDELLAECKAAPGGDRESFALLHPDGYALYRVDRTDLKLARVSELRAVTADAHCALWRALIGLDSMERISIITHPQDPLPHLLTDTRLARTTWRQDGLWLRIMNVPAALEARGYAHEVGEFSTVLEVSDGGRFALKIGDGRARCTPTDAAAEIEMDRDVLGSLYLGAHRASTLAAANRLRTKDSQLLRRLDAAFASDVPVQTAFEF
prcB open-gate 20S proteasome: Proteasome subunit beta, open-gate 20S proteasome (prcB, Mycobacterium tuberculosis, UniProt P9WHT9)
UniProt P9WHT9, sequence (whole entry, looked up): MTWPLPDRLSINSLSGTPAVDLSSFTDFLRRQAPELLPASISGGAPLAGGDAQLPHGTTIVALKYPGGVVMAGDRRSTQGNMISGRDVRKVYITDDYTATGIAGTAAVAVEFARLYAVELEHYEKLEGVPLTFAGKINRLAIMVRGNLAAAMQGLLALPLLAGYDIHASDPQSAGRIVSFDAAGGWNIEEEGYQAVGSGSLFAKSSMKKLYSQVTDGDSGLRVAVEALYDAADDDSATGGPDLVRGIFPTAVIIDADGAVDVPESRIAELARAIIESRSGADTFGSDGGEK
rep main protease: Replicase polyprotein 1ab, main protease (rep, Severe acute respiratory syndrome coronavirus 2, UniProt P0DTD1)
NA: Neuraminidase (NA, Influenza A virus, UniProt P03482)
UniProt P03482, sequence (whole entry, looked up): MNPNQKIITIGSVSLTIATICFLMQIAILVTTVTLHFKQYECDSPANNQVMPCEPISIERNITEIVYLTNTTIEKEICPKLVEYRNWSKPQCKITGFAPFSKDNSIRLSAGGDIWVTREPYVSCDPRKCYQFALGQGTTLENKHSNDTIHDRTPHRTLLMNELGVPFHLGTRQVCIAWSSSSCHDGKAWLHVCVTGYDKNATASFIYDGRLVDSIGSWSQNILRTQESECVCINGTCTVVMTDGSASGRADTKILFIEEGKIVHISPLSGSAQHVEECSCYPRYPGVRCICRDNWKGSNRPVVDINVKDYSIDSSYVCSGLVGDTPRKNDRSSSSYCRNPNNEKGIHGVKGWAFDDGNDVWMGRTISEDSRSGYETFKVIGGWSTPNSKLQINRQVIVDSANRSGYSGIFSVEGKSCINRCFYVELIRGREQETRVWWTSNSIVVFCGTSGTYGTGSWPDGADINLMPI
Response regulator PhoP: Response regulator PhoP (Mycobacterium tuberculosis, UniProt P71814)
Polymerase acidic protein PA with PB1 subunit: Polymerase acidic protein, PA with PB1 subunit (Influenza A virus, UniProt P03433)
UniProt P9WNX1, sequence (whole entry, looked up): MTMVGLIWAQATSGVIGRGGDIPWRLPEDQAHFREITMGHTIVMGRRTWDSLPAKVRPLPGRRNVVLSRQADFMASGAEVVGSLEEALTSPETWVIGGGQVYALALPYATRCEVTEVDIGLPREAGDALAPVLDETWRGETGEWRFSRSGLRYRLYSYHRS
UniProt P9WQK7, sequence (whole entry, looked up): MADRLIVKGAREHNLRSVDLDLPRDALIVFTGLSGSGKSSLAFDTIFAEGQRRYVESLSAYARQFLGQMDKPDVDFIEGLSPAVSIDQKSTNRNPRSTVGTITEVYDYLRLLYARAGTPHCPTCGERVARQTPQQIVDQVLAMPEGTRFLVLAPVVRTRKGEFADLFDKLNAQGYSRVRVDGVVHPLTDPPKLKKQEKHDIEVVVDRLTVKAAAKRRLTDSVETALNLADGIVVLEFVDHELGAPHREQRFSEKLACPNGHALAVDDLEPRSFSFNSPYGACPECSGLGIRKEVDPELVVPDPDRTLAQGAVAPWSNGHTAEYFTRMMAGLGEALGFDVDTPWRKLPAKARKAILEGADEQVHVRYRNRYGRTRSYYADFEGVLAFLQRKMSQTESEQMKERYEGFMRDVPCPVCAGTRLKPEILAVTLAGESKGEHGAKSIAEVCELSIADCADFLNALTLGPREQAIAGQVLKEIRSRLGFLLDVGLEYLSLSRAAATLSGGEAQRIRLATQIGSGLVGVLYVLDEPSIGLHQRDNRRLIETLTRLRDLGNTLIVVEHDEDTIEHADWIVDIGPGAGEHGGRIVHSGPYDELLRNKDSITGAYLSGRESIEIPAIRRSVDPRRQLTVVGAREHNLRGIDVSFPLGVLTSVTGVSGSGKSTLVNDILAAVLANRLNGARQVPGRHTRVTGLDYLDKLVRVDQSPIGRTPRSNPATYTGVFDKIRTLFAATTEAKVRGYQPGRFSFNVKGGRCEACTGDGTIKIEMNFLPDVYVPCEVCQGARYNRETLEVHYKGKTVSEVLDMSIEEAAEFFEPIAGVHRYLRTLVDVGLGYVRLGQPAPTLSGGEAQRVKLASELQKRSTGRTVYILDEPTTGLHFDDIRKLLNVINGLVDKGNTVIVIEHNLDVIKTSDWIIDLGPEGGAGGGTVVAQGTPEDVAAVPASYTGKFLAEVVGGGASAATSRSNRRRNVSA
UniProt P31652, sequence (whole entry, looked up): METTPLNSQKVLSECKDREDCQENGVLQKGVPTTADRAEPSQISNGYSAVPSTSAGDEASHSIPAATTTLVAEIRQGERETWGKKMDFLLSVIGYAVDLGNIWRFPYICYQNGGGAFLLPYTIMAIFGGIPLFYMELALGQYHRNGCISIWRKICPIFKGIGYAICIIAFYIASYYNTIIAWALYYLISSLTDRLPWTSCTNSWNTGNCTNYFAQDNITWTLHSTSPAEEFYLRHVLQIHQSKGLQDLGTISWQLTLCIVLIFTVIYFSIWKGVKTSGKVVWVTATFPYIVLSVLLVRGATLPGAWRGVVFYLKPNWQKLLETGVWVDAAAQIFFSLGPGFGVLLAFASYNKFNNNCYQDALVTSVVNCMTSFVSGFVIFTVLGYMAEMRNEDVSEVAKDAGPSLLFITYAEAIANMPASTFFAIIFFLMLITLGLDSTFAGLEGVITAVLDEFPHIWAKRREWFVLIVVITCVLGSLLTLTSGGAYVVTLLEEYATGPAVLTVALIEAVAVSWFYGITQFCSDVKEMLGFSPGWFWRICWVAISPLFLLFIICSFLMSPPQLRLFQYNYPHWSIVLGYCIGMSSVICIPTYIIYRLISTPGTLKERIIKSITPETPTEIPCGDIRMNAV
UniProt O60656, sequence (whole entry, looked up): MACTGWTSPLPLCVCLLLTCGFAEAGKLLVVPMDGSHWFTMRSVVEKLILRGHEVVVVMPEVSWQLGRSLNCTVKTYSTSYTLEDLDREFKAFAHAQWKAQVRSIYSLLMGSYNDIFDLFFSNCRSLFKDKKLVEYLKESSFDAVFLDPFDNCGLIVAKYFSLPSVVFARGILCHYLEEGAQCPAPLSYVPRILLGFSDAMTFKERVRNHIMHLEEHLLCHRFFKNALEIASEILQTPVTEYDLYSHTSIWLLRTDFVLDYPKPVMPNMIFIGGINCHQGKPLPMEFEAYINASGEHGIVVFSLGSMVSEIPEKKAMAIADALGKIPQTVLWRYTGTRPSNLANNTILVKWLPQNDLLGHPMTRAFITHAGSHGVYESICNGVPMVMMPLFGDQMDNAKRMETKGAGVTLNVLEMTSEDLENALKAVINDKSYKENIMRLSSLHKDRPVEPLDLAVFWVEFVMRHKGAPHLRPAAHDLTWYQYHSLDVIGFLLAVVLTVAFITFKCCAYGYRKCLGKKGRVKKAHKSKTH
UniProt I6WXK4, sequence (whole entry, looked up): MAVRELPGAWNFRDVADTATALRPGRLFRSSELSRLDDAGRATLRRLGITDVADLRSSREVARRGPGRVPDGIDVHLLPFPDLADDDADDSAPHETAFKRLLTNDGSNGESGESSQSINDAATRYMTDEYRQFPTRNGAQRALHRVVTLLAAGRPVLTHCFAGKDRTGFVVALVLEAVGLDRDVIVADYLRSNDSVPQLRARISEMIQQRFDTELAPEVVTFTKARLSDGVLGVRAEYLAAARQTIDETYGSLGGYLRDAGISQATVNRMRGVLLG
UniProt Q9H4M9, sequence (whole entry, looked up): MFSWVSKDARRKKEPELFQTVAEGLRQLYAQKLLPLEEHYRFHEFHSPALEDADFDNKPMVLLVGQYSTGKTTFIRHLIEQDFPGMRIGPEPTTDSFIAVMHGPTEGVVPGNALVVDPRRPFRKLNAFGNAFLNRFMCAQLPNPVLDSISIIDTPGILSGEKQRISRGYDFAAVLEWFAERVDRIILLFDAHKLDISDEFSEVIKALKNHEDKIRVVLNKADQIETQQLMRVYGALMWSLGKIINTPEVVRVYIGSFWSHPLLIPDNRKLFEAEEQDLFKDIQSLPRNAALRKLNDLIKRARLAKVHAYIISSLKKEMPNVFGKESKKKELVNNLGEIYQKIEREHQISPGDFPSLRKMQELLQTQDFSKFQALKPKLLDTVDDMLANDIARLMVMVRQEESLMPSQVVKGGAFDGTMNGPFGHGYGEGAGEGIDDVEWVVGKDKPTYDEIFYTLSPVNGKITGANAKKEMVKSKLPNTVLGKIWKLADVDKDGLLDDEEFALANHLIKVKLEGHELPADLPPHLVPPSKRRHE
UniProt P9WIA1, sequence (whole entry, looked up): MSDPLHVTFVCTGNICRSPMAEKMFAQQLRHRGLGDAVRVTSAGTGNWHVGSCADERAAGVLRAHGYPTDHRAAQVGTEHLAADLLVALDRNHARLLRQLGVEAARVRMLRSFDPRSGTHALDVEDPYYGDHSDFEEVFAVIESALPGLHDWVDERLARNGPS
UniProt P28063, sequence (whole entry, looked up): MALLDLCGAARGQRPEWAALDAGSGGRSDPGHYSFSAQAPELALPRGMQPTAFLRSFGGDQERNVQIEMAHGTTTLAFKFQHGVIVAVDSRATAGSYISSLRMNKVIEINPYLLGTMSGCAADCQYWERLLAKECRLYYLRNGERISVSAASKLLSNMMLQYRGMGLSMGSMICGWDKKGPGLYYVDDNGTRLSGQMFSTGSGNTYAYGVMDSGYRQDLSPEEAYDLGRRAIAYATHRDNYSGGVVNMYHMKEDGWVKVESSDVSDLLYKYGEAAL

CC(C)C[C@H](NC(=O)[C@@H]1CCCN1C(=O)[C@@H](NC(=O)[C@@H](NC(=O)c1cnccn1)C(C)C)C(C)C)C(=O)O  IC50 (Chaperone protein DnaK, with DnaJ2, GrpE (dnaK, Mycobacterium tuberculosis, UniProt P9WMJ9)): ~192 µM
CCOC(=O)CC[C@H](NC(=O)c1cccc(N(C)Cc2ccc3[nH]c(C)nc(=O)c3c2)c1)C(=O)OCC  IC50 (4'-phosphopantetheinyl transferase PptT; enzyme activity, inhibitor, fluorescence polarization; enzyme 100 nM): > 50 µM
Nc1nc(SCCN2CCCCC2)nc2sc3c(c12)CCCCC3  IC50 (eis; inhibitor): 7.6 ± 1.1 µM
CCCCCc1cc(O)c2c(c1)OC(C)(C)C1CCC(C)=CC21 (single isomer, unassigned; (-))  IC50 (CYP2C19 (Homo sapiens, UniProt P33261); inhibitor; human, pooled liver microsomes; pH 7.4, added: omeprazole): 0.21 ± 0.056 µM
N[C@@H](CCC(=O)N[C@@H](CS[Se]Cc1ccc(C(=O)Nc2cc(C(F)(F)F)c(Br)c(C(F)(F)F)c2)cc1)C(=O)NCC(=O)O)C(=O)O  IC50 (ptpB (Mycobacterium tuberculosis, UniProt I6WXK4); enzyme activity, inhibitor; added: glutathione 1 mM): > 100 µM
Nc1nc(SCCN2CCCCC2)nc2sc3c(c12)CCC(c1ccccc1)C3 (stereo not drawn)  IC50 (eis; inhibitor): 16 ± 2 µM
COC(=O)CC[C@H](NC(=O)c1ccc(N(C)Cc2ccc3[nH]c(C)nc(=O)c3c2)s1)C(=O)OC  IC50 (4'-phosphopantetheinyl transferase PptT; enzyme activity, inhibitor, fluorescence polarization; enzyme 100 nM): 12.5 µM
CC(C)C[C@H](NC(=O)CNC(=O)[C@@H](N)Cc1c[nH]c2ccccc12)C(=O)N1CCC[C@H]1C(=O)O  IC50 (DPP4 (Homo sapiens, UniProt P27487)): 351 ± 8.3 µM
CC1CCc2c(sc3nc(SCC(=O)NCCN4CCOCC4)nc(N)c23)C1 (stereo not drawn)  IC50 (eis; inhibitor): 0.47 ± 0.08 µM
CCN(CC)C(=O)C[C@H](NC(=O)CCc1ccccc1)C(=O)N[C@@H](COC)C(=O)NCc1cccc2ccccc12  IC50 (prcB open-gate 20S proteasome; enzyme activity, inhibitor; added: LLVY substrate): 0.023 ± 0.002 µM
Nc1nnc(-c2cc3c(ccc4ccccc43)oc2=O)s1  IC50 (UvrABC system protein A (uvrA, Mycobacterium tuberculosis, UniProt P9WQK7)): ~4 µM
Cc1nc(=O)c2cc(CN(C)c3cccc(C(=O)Nc4n[nH]c5ccccc45)c3)ccc2[nH]1  IC50 (4'-phosphopantetheinyl transferase PptT; enzyme activity, inhibitor, fluorescence polarization; enzyme 100 nM): 1.36 µM
Nc1nc(SCCCN2CCCCC2)nc2sc3c(c12)CCCCC3  IC50 (eis; inhibitor): 1.2 ± 0.1 µM
Cc1nc(=O)c2cc(CN(C)c3ccc(C(=O)N[C@H](CCc4nn[nH]n4)C(=O)O)s3)ccc2[nH]1  IC50 (4'-phosphopantetheinyl transferase PptT; enzyme activity, inhibitor, fluorescence polarization; enzyme 100 nM): 0.08 µM
CCN(CC)CCNC(=O)CSc1nc(N)c2c3c(sc2n1)CCC3  IC50 (eis; inhibitor): 1.9 ± 0.6 µM
O=C(Nc1nc2cc3c(cc2s1)OCCO3)C1CCN(S(=O)(=O)c2ccc3c(c2)CCC3)CC1  IC50 (rep main protease; cell-based): 145 ± 25 µM
Cc1cc(O)cc(O)c1C(=O)O[C@@H]1CC2=C(COC([C@@H]3O[C@@H]3C)=C2)C(=O)[C@]1(C)O  IC50 (NA; influenza A virus H3N2): 186 µM and 177 µM
CC(C)[N+](C)(C)CCc1c[nH]c2cccc(O)c12  IC50 (Slc6a4 (Rattus norvegicus, UniProt P31652); transporter uptake, inhibitor, radiometric): 0.31 µM
Cc1ccc(Nc2cccc(C(=O)Nc3cc(C(=O)OCc4ccccc4)[nH]n3)c2)nn1  IC50 (rep main protease; cell-based): 68 ± 11 µM
NC1=NN=Cc2ccccc2[O][V](=[O])[O]1.c1cnc2c(c1)ccc1cccnc12  IC50 (Low molecular weight protein-tyrosine phosphatase A (Mycobacterium tuberculosis, UniProt P9WIA1); enzyme activity, inhibitor): 2.69 ± 0.27 µM
CCCCCc1cc(O)c2c(c1)OC(C)(C)C1CCC(C)=CC21 (single isomer, unassigned; (-))  IC50 (UGT1A9 (Homo sapiens, UniProt O60656); enzyme activity, inhibitor; HEK293; pH 7.4): 0.45 µM
O=C(Nc1nc2c(s1)CN(Cc1ccccc1)CC2)c1ccc2c(=O)n3c(nc2c1)CCCCC3  IC50 (rep main protease; cell-based): 40 ± 7 µM
CC(=O)N[C@@H](Cc1ccc(O)cc1)C(=O)N[C@@H](CC(N)=O)C(=O)N1CCC[C@H]1C(=O)N[C@@H](Cc1ccccc1)C(=O)N[C@@H](CCC(=O)O)C(=O)N[C@@H](CCC(=O)O)C(=O)NCC(=O)NCC(N)=O  IC50 (EH domain-containing protein 1 (Homo sapiens, UniProt Q9H4M9); ligand displacement, FP): 107 µM
O=S(=O)(O)c1ccc(-c2cnc(-c3ccc(-c4ncc(-c5ccc(S(=O)(=O)O)cc5)o4)cc3)o2)cc1  IC50 (Response regulator PhoP; DNA binding, fluorescence polarization; added: 6-FAM DNA 10 nM): 88 ± 1.2 µM
COC(=O)[C@@H](CCCNC(=O)OC(C)(C)C)NC(=O)c1ccc(NCc2ccc3nc(N)nc(N)c3c2Cl)cc1  IC50 (4'-phosphopantetheinyl transferase PptT; enzyme activity, inhibitor, fluorescence polarization; enzyme 100 nM): > 25 µM
Nc1nc(SCC(=O)NCCN2CCCCC2)nc2sc3c(c12)CCCCC3  IC50 (eis; inhibitor): 0.3 ± 0.06 µM
Cc1nc(=O)c2cc(CN(C)c3ccc(C(=O)Nc4n[nH]c5ccccc45)s3)ccc2[nH]1  IC50 (4'-phosphopantetheinyl transferase PptT; enzyme activity, inhibitor, fluorescence polarization; enzyme 100 nM): 1.04 µM and 1 µM
CC(C)C[C@@H]1NC(=O)CCCCCCCC[n+]2cc(n(CCCCCCCCc3ccccc3)c2)C[C@@H](C(=O)N[C@@H](CO)C(=O)N[C@H](C(N)=O)[C@@H](C)OP(=O)([O-])O)NC1=O  IC50 (Serine/threonine-protein kinase PLK1, polo-box domain (PLK1, Homo sapiens, UniProt P53350)): 0.83 µM
Nc1nc(SCCN2CCCCC2)nc2sc3c(c12)CCCC3  IC50 (eis; inhibitor): 1.1 ± 0.1 µM
O=S(=O)(O)CC1CSSCC(CS(=O)(=O)O)SS1 (stereo not drawn)  IC50 (Response regulator PhoP; DNA binding, fluorescence polarization; added: 6-FAM DNA 10 nM): 18 ± 1.3 µM
Cc1cc(=O)oc2cc(OCCCCn3cc(COc4ccc(N5C(N)=NC(N)=NC56CCCCC6)cc4)nn3)ccc12  IC50 (folA (Mycobacterium tuberculosis, UniProt P9WNX1)): 0.63 µM and ~1 µM
Cc1nc(=O)c2cc(CN(C)c3cccc(C(=O)N[C@@H](CCC(=O)O)C(=O)O)c3)ccc2[nH]1  IC50 (4'-phosphopantetheinyl transferase PptT; enzyme activity, inhibitor, fluorescence polarization; enzyme 100 nM): 0.09 µM
Cc1cc(-c2ccccc2)n2nc(C(=O)Nc3sc4c(c3C(N)=O)CCCCC4)nc2n1  IC50 (Polymerase acidic protein PA with PB1 subunit; PA-PB1 interaction, inhibitor, ELISA): 1.1 ± 0.3 µM
Nc1nc(SCC(=O)NCCN2CCOCC2)nc2sc3c(c12)CCC(c1ccccc1)C3 (stereo not drawn)  IC50 (eis; inhibitor): 16 ± 3 µM
Cc1nc(=O)c2cc(CN(C)c3ccc(C(=O)NCCc4nn[nH]n4)s3)ccc2[nH]1  IC50 (4'-phosphopantetheinyl transferase PptT; enzyme activity, inhibitor, fluorescence polarization; enzyme 100 nM): 0.2 µM
Cc1cc(-c2ccccc2)nc2nc(C(=O)Nc3sc4c(c3C(N)=O)CCCCC4)nn12  IC50 (Polymerase acidic protein PA with PB1 subunit; PA-PB1 interaction, inhibitor, ELISA): 28 ± 1 µM
COC[C@H](NC(=O)[C@H](CC(=O)N1CCCCC1)NC(=O)CCc1ccccc1)C(=O)NCc1cccc2ccccc12  IC50 (prcB open-gate 20S proteasome; enzyme activity, inhibitor; added: LLVY substrate): 0.016 ± 0.001 µM
CCCCCCCCC/C=C/C=C/C(=O)N[C@H](C(=O)N[C@H]1C[C@@H](O)CCNC(=O)/C=C/[C@H](C)NC1=O)[C@@H](C)O  IC50 (Psmb8 (Mus musculus, UniProt P28063); inhibitor): 0.0013 µM
CC(=O)OC/C=C/C1=CC2=C(CO1)C(=O)[C@](C)(O)[C@H](OC(=O)c1c(C)cc(O)cc1O)C2  IC50 (NA; influenza A virus H3N2): 46.5 ± 2.5 µM

Some of these lines once more:
Cc1cc(O)cc(O)c1C(=O)O[C@@H]1CC2=C(COC([C@@H]3O[C@@H]3C)=C2)C(=O)[C@]1(C)O  IC50 (NA; influenza A virus H3N2): 186 µM and 177 µM
CC(C)C[C@H](NC(=O)CNC(=O)[C@@H](N)Cc1c[nH]c2ccccc12)C(=O)N1CCC[C@H]1C(=O)O  IC50 (DPP4 (Homo sapiens, UniProt P27487)): 351 ± 8.3 µM
Cc1nc(=O)c2cc(CN(C)c3cccc(C(=O)N[C@@H](CCC(=O)O)C(=O)O)c3)ccc2[nH]1  IC50 (4'-phosphopantetheinyl transferase PptT; enzyme activity, inhibitor, fluorescence polarization; enzyme 100 nM): 0.09 µM
CC(C)C[C@H](NC(=O)[C@@H]1CCCN1C(=O)[C@@H](NC(=O)[C@@H](NC(=O)c1cnccn1)C(C)C)C(C)C)C(=O)O  IC50 (Chaperone protein DnaK, with DnaJ2, GrpE (dnaK, Mycobacterium tuberculosis, UniProt P9WMJ9)): ~192 µM
NC1=NN=Cc2ccccc2[O][V](=[O])[O]1.c1cnc2c(c1)ccc1cccnc12  IC50 (Low molecular weight protein-tyrosine phosphatase A (Mycobacterium tuberculosis, UniProt P9WIA1); enzyme activity, inhibitor): 2.69 ± 0.27 µM
